Results of several laboratories.
Compare with care: the assays were run in different laboratories. “And” joins repeats or separate records; there may be more than shown. Numbers after ± are the reported error.
EGLN1: Egl nine homolog 1 (EGLN1, Homo sapiens, UniProt Q9GZT9)
Sequence of UniProt Q9GZT9 (whole entry, looked up): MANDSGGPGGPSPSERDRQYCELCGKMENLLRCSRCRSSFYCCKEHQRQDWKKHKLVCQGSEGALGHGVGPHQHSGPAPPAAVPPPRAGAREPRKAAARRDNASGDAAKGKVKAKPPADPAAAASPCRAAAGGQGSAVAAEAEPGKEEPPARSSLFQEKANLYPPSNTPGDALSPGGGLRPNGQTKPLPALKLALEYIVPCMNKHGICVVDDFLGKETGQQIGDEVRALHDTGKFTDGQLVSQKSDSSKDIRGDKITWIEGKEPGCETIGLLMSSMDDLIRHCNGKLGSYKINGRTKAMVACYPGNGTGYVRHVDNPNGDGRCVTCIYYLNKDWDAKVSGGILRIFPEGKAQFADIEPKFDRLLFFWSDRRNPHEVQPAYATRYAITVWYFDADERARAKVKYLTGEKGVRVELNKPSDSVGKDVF
Kir3.1/Kir3.2: Kir3.1/Kir3.2 (Homo sapiens, UniProt P48051+P48549)
Sequence of UniProt P48051 (whole entry, looked up): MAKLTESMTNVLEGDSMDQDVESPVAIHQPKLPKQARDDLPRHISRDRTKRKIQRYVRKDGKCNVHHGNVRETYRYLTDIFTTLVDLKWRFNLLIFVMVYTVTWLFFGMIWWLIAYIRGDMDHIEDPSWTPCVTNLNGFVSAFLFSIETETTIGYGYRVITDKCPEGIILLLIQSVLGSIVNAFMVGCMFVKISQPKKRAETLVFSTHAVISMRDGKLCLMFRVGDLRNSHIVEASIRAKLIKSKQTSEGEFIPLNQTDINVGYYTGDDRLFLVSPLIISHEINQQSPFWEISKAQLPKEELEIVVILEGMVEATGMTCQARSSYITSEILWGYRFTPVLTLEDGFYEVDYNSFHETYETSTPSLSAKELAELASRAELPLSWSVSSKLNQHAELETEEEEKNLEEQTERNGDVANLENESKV
Sequence of UniProt P48549 (whole entry, looked up): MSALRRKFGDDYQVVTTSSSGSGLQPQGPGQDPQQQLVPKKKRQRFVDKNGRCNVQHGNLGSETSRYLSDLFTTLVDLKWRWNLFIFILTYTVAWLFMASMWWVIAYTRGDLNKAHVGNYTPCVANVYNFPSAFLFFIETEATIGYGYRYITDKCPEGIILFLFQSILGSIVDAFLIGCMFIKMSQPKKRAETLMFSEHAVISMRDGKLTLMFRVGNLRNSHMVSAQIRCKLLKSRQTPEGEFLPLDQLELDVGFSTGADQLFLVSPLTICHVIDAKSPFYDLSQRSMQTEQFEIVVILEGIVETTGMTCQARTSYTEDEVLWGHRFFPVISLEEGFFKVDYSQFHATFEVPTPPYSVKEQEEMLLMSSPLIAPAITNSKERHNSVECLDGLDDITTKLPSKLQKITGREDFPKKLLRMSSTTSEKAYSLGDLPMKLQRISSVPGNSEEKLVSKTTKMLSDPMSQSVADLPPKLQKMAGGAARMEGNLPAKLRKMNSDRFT
Grik2: Glutamate receptor ionotropic, kainate 2 (Grik2, Rattus norvegicus, UniProt P42260)
ALPI: Intestinal-type alkaline phosphatase (ALPI, Bos taurus, UniProt P19111)
Ephx2: Bifunctional epoxide hydrolase 2 (Ephx2, Mus musculus, UniProt P34914)
Sequence of UniProt P34914 (whole entry, looked up): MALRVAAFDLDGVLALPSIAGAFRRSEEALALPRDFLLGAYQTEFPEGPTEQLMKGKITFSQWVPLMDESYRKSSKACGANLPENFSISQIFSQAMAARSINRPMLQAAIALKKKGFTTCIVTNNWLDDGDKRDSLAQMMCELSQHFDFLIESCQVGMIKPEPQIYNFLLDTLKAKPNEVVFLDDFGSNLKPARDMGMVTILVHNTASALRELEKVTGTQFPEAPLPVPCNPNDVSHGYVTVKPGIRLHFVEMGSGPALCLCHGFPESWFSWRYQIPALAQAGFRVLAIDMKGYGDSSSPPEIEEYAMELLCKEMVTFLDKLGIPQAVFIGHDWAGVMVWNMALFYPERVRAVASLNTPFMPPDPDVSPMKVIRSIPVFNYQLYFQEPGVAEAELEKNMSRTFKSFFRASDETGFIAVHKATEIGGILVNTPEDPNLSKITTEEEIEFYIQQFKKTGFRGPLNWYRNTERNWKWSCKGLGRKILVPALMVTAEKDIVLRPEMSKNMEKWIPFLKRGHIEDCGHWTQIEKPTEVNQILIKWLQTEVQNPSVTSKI
BACE1: Beta-secretase 1 (BACE1, Homo sapiens, UniProt P56817)
Sequence of UniProt P42336 (whole entry, unmodified, looked up): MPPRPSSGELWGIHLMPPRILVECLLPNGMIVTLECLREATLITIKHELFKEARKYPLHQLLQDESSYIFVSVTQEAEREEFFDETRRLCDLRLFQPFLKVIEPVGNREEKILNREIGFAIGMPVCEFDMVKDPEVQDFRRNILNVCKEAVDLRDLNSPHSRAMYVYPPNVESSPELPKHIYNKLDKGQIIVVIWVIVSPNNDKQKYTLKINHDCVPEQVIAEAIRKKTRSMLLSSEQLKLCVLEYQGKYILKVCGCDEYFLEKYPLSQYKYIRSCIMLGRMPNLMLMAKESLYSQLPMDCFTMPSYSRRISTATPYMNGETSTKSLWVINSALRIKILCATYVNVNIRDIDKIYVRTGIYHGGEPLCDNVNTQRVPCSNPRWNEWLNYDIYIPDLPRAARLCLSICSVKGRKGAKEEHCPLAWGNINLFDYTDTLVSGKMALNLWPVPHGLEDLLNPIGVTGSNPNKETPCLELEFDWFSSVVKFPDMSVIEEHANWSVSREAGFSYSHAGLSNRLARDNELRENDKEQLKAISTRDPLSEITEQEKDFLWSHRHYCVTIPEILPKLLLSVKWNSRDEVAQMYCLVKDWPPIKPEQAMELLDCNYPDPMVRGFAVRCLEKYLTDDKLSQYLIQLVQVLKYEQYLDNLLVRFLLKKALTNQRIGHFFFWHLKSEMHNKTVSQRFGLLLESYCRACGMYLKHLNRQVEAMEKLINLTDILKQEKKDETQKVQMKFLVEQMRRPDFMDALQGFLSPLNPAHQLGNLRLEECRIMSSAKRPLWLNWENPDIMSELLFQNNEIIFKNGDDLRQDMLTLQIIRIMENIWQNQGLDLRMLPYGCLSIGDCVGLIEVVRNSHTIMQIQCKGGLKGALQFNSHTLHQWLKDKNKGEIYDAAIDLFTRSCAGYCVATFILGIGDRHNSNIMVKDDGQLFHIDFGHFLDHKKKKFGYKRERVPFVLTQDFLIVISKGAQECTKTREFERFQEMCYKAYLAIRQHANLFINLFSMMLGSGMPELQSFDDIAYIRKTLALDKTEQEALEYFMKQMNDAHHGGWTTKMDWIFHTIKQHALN
Sequence of UniProt P56817 (whole entry, looked up): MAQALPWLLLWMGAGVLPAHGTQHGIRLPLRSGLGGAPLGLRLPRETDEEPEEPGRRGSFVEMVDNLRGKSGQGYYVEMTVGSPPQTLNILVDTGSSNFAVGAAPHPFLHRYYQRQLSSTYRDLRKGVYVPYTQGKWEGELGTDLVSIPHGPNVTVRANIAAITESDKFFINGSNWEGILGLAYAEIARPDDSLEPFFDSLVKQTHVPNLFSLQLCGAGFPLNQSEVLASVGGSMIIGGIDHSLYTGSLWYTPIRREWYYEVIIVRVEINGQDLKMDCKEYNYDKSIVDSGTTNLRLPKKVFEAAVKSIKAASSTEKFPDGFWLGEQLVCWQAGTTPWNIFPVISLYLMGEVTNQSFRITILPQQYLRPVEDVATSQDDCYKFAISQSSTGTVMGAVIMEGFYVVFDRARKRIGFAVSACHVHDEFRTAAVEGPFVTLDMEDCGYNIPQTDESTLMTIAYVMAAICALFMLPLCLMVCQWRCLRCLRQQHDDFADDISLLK

CCCCC=O  IC50 (Liver carboxylesterase (Sus scrofa, UniProt Q29550); enzyme activity, inhibitor; with preincubation): 1370 µM
O=C(O)CCCC(=O)NNC(=O)c1ccccn1  IC50 (EGLN1; inhibitor, AlphaScreen; bimodal curve, rough estimate, together with: 2 µM 2-oxoglutarate): > 300 µM
O=S(=O)(C1CC2OC1C(c1ccc(O)cc1)=C2c1ccc(O)cc1)N(CC(F)(F)F)c1ccc(Cl)cc1 (stereo not drawn)  IC50 (Estrogen receptor beta (ESR2, Homo sapiens, UniProt Q92731); reporter gene, antagonist, luciferase): 4.08 µM
N=c1n(Cc2ccccc2)c2ccccc2n1CC(O)COc1ccc(OCc2ccccc2)cc1 (stereo not drawn)  IC50 (Kir3.1/Kir3.2; ion flux): 3.17 µM
[H]/N=C(\N/C(=N/[H])NCCCCCCNC(=N)NC(=N)Nc1ccc(Cl)cc1)Nc1ccc(Cl)cc1  IC50 (enhanced intracellular survival protein (Kocuria rhizophila, UniProt A0AAX2SEI6)): 17 ± 4 µM
O=C(N[C@@H](Cc1c[nH]c2ccccc12)C(=O)O)OCC1c2ccccc2-c2ccccc21  IC50 (Bifunctional epoxide hydrolase 2, N-terminal phosphatase domain (Ephx2, Mus musculus, UniProt P34914); N-terminal phosphatase activity; mouse; 10 min preincubation, together with: AttoPhos 15 µM): 4 µM
COc1ccccc1-n1c(/C=C/c2cccc([N+](=O)[O-])c2)nc2ccccc2c1=O  IC50 (Grik2; ion current, inhibitor, two-electrode voltage clamp; Xenopus oocytes; concanavalin A pretreatment, together with: 100 µM glutamate): > 300 µM
NCCC(Oc1ccc(C(F)(F)F)cc1)c1ccccc1 (stereo not drawn)  IC50 (Sodium-dependent serotonin transporter (Slc6a4, Mus musculus, UniProt Q60857, I172M); [3H]5-HT uptake; brain synaptosomes; 10 min, pH 7.4, 37 °C, together with: [3H]5-HT 100 nM): 0.5 µM
C/C(=C\CC/C(C)=C/CC[C@]1(C)CCc2cc(O)cc(C)c2O1)CC/C=C(\C)C(=O)O  IC50 (Prostaglandin G/H synthase 1 (PTGS1, Homo sapiens, UniProt P23219); enzyme activity, inhibitor, ELISA; with preincubation): 4 µM
N=c1n(Cc2ccccc2)c2ccccc2n1CC(O)COc1ccc(Cc2ccccc2)cc1 (stereo not drawn)  IC50 (Kir3.1/Kir3.2; ion flux): 3.83 µM
FC(F)(F)Oc1ccc(Oc2ccnc(N3CCC(NC(=S)Nc4cccnc4)CC3)c2Cl)c(Cl)c1  IC50 (Lysophosphatidylserine lipase ABHD12 (Abhd12, Mus musculus, UniProt Q99LR1); enzyme activity, inhibitor; lysate): ~0.03 µM
N#Cc1c(C(F)(F)F)cc(-c2ccc(Cl)cc2)nc1SCC(=O)Nc1ncccn1  IC50 (Trace amine-associated receptor 1 (TAAR1, Homo sapiens, UniProt Q96RJ0)): 0.0084 µM
Tannic acid  IC50 (mRNA triphosphatase Cet1 (Trypanosoma brucei brucei, UniProt Q582T2); enzyme activity, inhibitor, Transcreener ADP FP; 3 h, together with: 50 µM ATP): 0.06 µM
Cc1ccc(OCC(O)Cn2c(=N)n(Cc3ccccc3)c3ccccc32)cc1 (stereo not drawn)  IC50 (Kir3.1/Kir3.2; ion flux): 2.17 µM and ~2 µM
CCCCCCCCN1CC2=C(C1=O)C(c1ccc(O)cc1)NC(=O)N2 (stereo not drawn)  IC50 (ALPI; enzyme activity, inhibitor, absorbance; pH 9.5): 8.23 µM
[Cl-].[Cl-].[Cl-].[La+3]  IC50 (Collagenase 3 (MMP13, Homo sapiens, UniProt P45452); enzyme activity, inhibitor; pH 7.5, with preincubation): 13.2 µM
C[C@@H](CNCc1ccccc1)N1C[C@H](CCCNC(=N)N)N(CCc2cccc(F)c2)C1=S  IC50 (Neuropeptides B/W receptor type 1 (NPBWR1, Homo sapiens, UniProt P48145); receptor activation, antagonist, FLIPR): > 10 µM
O=C(Nc1cc(F)c(F)c(F)c1Br)c1cc(S(=O)(=O)N2CCOCC2)c(Cl)cc1Cl  IC50 (Lysophosphatidic acid receptor 5 (LPAR5, Homo sapiens, UniProt Q9H1C0); Ca2+ mobilization, antagonist; B103; together with: LPA at EC50): > 100 µM
O=c1cc(-c2ccc(O)c(O)c2)oc2cc(O)cc(O)c12  IC50 (UDP-glucuronosyltransferase 1A1 (UGT1A1, Homo sapiens, UniProt P22309); glucuronidation; pooled human liver microsomes; no preincubation): 44 µM
O=C(OC(C(F)(F)F)C(F)(F)F)N1Cc2ccc(OCCN3CCOCC3)cc2C1  IC50 (Monoacylglycerol lipase ABHD6 (ABHD6, Homo sapiens, UniProt Q9BV23); enzyme activity, inhibitor, fluorescence substrate): 0.008 ± 0.0006 µM
O=C(O)c1cc2c(C(F)(F)F)cc(-c3ccccc3)cc2n1O  IC50 (L-lactate dehydrogenase A chain (LDHA, Homo sapiens, UniProt P00338); inhibitor, NADH fluorescence; NADH competition, together with: 1440 µM pyruvate, 40 µM NADH): 29 ± 3 µM
CCC(C)Oc1nc(N)nc(N)c1C#N (stereo not drawn)  IC50 (Phosphatidylinositol 4,5-bisphosphate 3-kinase catalytic subunit alpha isoform (PIK3CA, Homo sapiens, UniProt P42336); enzyme activity, inhibitor): 10 to 20 µM and 12 µM and 9.9 µM
O=C(CCCCCCNC(=O)[C@H]1CCCN(C(=O)c2ccc(NC(=O)NC(c3ccccc3)c3ccccc3)c(F)c2)C1)NO  IC50 (Ephx2; enzyme activity, inhibitor, fluorescence): 3.06 µM
COc1ccc(-n2c(/C=C/c3cccc([N+](=O)[O-])c3)nc3ccccc3c2=O)cc1  IC50 (Grik2; ion current, inhibitor, two-electrode voltage clamp; Xenopus oocytes; concanavalin A pretreatment, together with: 100 µM glutamate): > 300 µM
N=c1n(Cc2ccccc2)c2ccccc2n1CC(O)COc1ccccc1 (stereo not drawn)  IC50 (Kir3.1/Kir3.2; ion flux): 1.95 µM
N#Cc1cccc(-c2ccc(Cn3cccc(O)c3=S)cc2)c1  IC50 (Histone deacetylase 1 (HDAC1, Homo sapiens, UniProt Q13547); enzyme activity, inhibitor, SAMDI mass spectrometry): > 10 µM
C[C@]12CC3CC(Nc4c(Nc5ccc(CN6CCC[C@H](C(=O)NCCCC(=O)NO)C6)cc5)c(=O)c4=O)(C1)C[C@@](C)(C3)C2  IC50 (Ephx2; enzyme activity, inhibitor, fluorescence): 2.3 µM
CCCCC[C@H](CC(=O)NO)C(=O)N[C@H](C(=O)N1CCC[C@H]1CO)C(C)C  IC50 (Meprin A subunit beta (MEP1B, Homo sapiens, UniProt Q16820); enzyme activity, inhibitor, FRET): 3 to 5 µM
Cc1occc(=O)c1O  IC50 (EGLN1; ODDD peptide hydroxylation, inhibitor, MALDI-TOF MS; pH 7.00, 37.0 °C, together with: 2-oxoglutarate 10 µM): 1000 µM
Fc1cc(F)cc(F)c1  IC50 (Neuronal acetylcholine receptor; alpha4/beta2 (Homo sapiens, UniProt P17787+P43681); ion current, inhibitor, two-electrode voltage clamp; Xenopus oocytes; together with: ACh 1 mM): 0.009 atm
Nc1ccc(C(=O)O)cc1  IC50 (mushroom tyrosinase; monophenolase activity, inhibitor; pH 6.8, 20 °C, together with: p-coumaric acid substrate): 3.8 µM
CC(C)NCc1ccc(C[C@@H]2NC(=O)[C@@H](N(C)C(=O)c3ccc4ccccc4c3)NC(=O)[C@H](Cc3ccccc3)NC(=O)[C@H](N)CSSC[C@@H](C(=O)N[C@@H](Cc3ccc4ccccc4c3)C(N)=O)NC(=O)[C@H](Cc3ccccc3)NC2=O)cc1  IC50 (Somatostatin receptor type 4 (SSTR4, Homo sapiens, UniProt P31391); ligand displacement, radioligand; cell membranes): 0.063 µM
CC(=O)N[C@H]1[C@@H](O[C@H]2[C@H](O)[C@@H](O)[C@H](O[C@H]3[C@H](O)[C@@H](NC(C)=O)[C@@H](OCCCCCN)O[C@@H]3COS(=O)(=O)O)O[C@@H]2C(=O)O)O[C@H](COS(=O)(=O)O)[C@@H](O[C@@H]2O[C@H](C(=O)O)[C@@H](O)[C@H](O)[C@H]2O)[C@@H]1O  IC50 (BACE1; enzyme activity, inhibitor, FRET; pH 4.5): 35 µM
COc1cc(/C=C/C(C)=N/O)ccc1OCC(=O)Nc1ccc(C)cc1  IC50 (Peroxisome proliferator-activated receptor gamma (PPARG, Homo sapiens, UniProt P37231); ligand displacement, TR-FRET): 17.3 µM
Cc1cccc(Nc2cc(Cl)nc(SCC(=O)O)n2)c1C  IC50 (Aldo-keto reductase family 1 member B10 (AKR1B10, Homo sapiens, UniProt O60218); enzyme activity, inhibitor): 60 µM
Cc1cccc(-c2nnc3sc(Cc4ccc(F)cc4)nn23)c1  IC50 (Serine/threonine-protein kinase pim-1 (PIM1, Homo sapiens, UniProt P11309); kinase activity, inhibitor, ADP-Glo): 0.92 ± 0.97 µM
CCCS(=O)(=O)Nc1ccc(F)c(C(=O)c2c[nH]c3ncc(-c4ccc(Cl)cc4)cc23)c1F  IC50 (Solute carrier organic anion transporter family member 1B3 (SLCO1B3, Homo sapiens, UniProt Q9NPD5); substrate uptake, inhibitor; HEK293 overexpressing SLCO1B3; 3 min, 100% human plasma, together with: [3H]-CCK-8 1 µM): 0.0023 µM
OC(c1cc(-c2ccc(Cl)cc2)nc2ccccc12)C1CCCCN1 (stereo not drawn)  IC50 (BACE1; inhibitor, FRET; pH 4.5): 21.3 ± 6.4 µM
Nc1nc2c(ncn2[C@@H]2O[C@@H]3COP(=O)(O)O[C@H]3[C@H]2O)c(=O)[nH]1  IC50 (Cyclic nucleotide-gated potassium channel (Spirochaeta thermophila, UniProt G0GA88); Tl+ flux, inhibitor, stopped-flow fluorescence; liposomes; 2.5 s, together with: cAMP 200 µM): 40 µM
O=C(O)/C=C\C(=O)NNC(=O)c1ccccn1  IC50 (EGLN1; inhibitor, AlphaScreen; bimodal curve, rough estimate, together with: 2 µM 2-oxoglutarate): > 300 µM
C=C(C)CCOP(=O)(O)OP(=O)(O)OP(=O)(O)OC[C@H]1O[C@@H](n2cnc3c(N)ncnc32)[C@H](O)[C@@H]1O  IC50 (Aurora kinase B (AURKB, Homo sapiens, UniProt Q96GD4); enzyme activity, inhibitor, HotSpot kinase; together with: ATP 1 µM): 1.8 µM
O=C1CSC2(CCN(CCCN3c4ccccc4Sc4ccc(Cl)cc43)CC2)N1  IC50 (BACE1; inhibitor, FRET; pH 4.5): 6.6 ± 0.3 µM
CC(C)(C)[C@H](NC(=O)c1ccc(N)c(Cl)c1)C(=O)N1CCC[C@H]1C(=O)N[C@H](C=O)CC(=O)O  IC50 (Caspase-1 (CASP1, Homo sapiens, UniProt P29466); enzyme activity, inhibitor, fluorescence; with preincubation): 0.0115 µM
O=C1Nc2ccc(I)cc2/C1=C/c1cc(Br)c(O)c(Br)c1  IC50 (Casein kinase II subunit alpha (CSNK2A1, Homo sapiens, UniProt P68400); enzyme activity, inhibitor): 0.129 µM
CCCCCCCCCCCCCCCC(=O)OCc1cc(=O)c(OC(=O)CCCCCCCCCCCCCCC)co1  IC50 (mushroom tyrosinase; inhibitor; together with: L-DOPA): > 2000 µM
O=c1cc(N2CCOCC2)oc2c(OCc3ccccc3)cccc12  IC50 (Phosphatidylinositol 4,5-bisphosphate 3-kinase catalytic subunit alpha isoform (PIK3CA, Homo sapiens, UniProt P42336, Q859D); enzyme activity, inhibitor): 2.5 µM
C[C@]12C[C@@H]3C[C@](C)(C1)C[C@@](NC(=O)Nc1ccc(C(=O)N4CCC[C@H](C(=O)NCCCCCCC(=O)NO)C4)cc1F)(C3)C2  IC50 (Ephx2; enzyme activity, inhibitor, fluorescence): 0.001 µM
C[C@@H](CC(=O)NCc1cccc2ccccc12)NC(=O)C[C@H](CC(=O)NC(C)(C)C)NC(=O)CCc1ccccc1  IC50 (Proteasome component C5/PSMB8 (Homo sapiens, UniProt P20618+P28062); chymotrypsin-like activity, inhibitor; together with: ac-ANW-AMC): > 100 µM
N=C(N)c1ccc(SCCOCCSc2ccc(C(=N)N)cc2)cc1  IC50 (Grin1/Grin2a/Grin2b, channel binding site (Rattus norvegicus, UniProt P35439+Q00959+Q00960); pH 7): 1.22 ± 0.23 µM
O=C1NC2=C(C(=O)N(Cc3ccc(F)cc3)C2)C(c2ccccc2O)N1 (stereo not drawn)  IC50 (ALPI; enzyme activity, inhibitor, absorbance; pH 9.5): 1.27 µM
O=C(NNC(=O)c1ccc(CNS(=O)(=O)c2ccc(F)c(Cl)c2)cc1)c1ccccc1  IC50 (Glutamate NMDA receptor; Grin1/Grin2a (Grin1/Grin2a, Rattus norvegicus, UniProt P35439+Q00959, P527A); ion current, two-electrode voltage clamp; oocytes): 0.48 µM

Repeated from above:
O=C(CCCCCCNC(=O)[C@H]1CCCN(C(=O)c2ccc(NC(=O)NC(c3ccccc3)c3ccccc3)c(F)c2)C1)NO  IC50 (Ephx2; enzyme activity, inhibitor, fluorescence): 3.06 µM
COc1ccc(-n2c(/C=C/c3cccc([N+](=O)[O-])c3)nc3ccccc3c2=O)cc1  IC50 (Grik2; ion current, inhibitor, two-electrode voltage clamp; Xenopus oocytes; concanavalin A pretreatment, together with: 100 µM glutamate): > 300 µM
N=c1n(Cc2ccccc2)c2ccccc2n1CC(O)COc1ccccc1 (stereo not drawn)  IC50 (Kir3.1/Kir3.2; ion flux): 1.95 µM
N#Cc1cccc(-c2ccc(Cn3cccc(O)c3=S)cc2)c1  IC50 (Histone deacetylase 1 (HDAC1, Homo sapiens, UniProt Q13547); enzyme activity, inhibitor, SAMDI mass spectrometry): > 10 µM
